Measured values collected from several papers.
Lines come from different studies, so protocols differ. Numbers after ± are the reported error.
Target: Amine oxidase [flavin-containing] A (MAOA, Homo sapiens, UniProt P21397)
Sequence of UniProt P21397 (whole entry, looked up): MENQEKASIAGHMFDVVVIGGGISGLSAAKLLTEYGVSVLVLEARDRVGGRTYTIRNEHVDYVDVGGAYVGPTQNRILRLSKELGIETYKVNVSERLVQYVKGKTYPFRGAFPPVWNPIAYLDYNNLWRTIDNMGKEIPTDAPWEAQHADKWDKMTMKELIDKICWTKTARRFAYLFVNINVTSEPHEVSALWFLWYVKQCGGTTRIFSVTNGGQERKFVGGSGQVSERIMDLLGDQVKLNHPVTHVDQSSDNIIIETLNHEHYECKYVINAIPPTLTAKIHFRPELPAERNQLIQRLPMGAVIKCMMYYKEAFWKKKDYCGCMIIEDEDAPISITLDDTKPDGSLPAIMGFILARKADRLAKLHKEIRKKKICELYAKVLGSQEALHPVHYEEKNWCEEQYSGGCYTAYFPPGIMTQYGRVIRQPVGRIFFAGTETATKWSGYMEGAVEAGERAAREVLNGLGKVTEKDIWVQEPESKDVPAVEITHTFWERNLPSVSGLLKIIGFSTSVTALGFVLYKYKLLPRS

Cc1ccc(CN)cc1 — kcat (substrate; pH 9.0, α,α-protio substrate): 0.4167 ± 0.004 s⁻¹
COc1ccc(C#CC2=C[C@H]3C[C@@]4(OC(=O)C=C24)[C@H]2CC[C@H](C(OC)OC)N32)cc1 — inhibition (cell-free assay, inhibitor; 10 µM): 3%
C#CCCCCNC(=O)c1ccc(N(C(=O)C=C)c2ccc(Br)cc2)cc1 — reactivity ratio (mass spectrometry profiling; H460 cell lysate; 100 µM over 10 µM, UniProt P21397; baseline: high over low concentration): 1.85
CC(C)c1ccc(/C=C/C(=O)c2ccc(O)cc2)cc1 — remaining activity (enzyme activity, inhibitor; 10 µM): 11.9%
NCc1ccc(Cl)cc1 — kcat (substrate; pH 9.0, α,α-protio substrate): 0.65 ± 0.00817 s⁻¹
CC(C)c1ccc(/C=C/C(=O)c2ccc(Br)s2)cc1 — remaining activity (enzyme activity, inhibitor; about 2 × IC50, 30 min preincubation, without dialysis): 29.1%
COc1ncc2nc(C)n(Cc3ncc(S(N)(=O)=O)cc3F)c2c1-c1ccccc1 — inhibition (enzyme activity, inhibitor; 10 µM, safety panel): 17%
Cn1cnnc1Sc1c2c(c(C#N)c3nc4ccccc4n13)CCCC2 — remaining activity (100 µM): 99.9 ± 8.5%
CC(C)c1ccc(/C=C/C(=O)c2ccc(S(C)(=O)=O)cc2)cc1 — remaining activity (enzyme activity, inhibitor; 10 µM): 90.3%

Excerpt of the above:
CC(C)c1ccc(/C=C/C(=O)c2ccc(S(C)(=O)=O)cc2)cc1 — remaining activity (enzyme activity, inhibitor; 10 µM): 90.3%
